Published values from different studies.
Each line is one published result; not all experiments were run side by side.
Target: Amine oxidase [flavin-containing] B (MAOB, Homo sapiens, UniProt P27338)
Chain of UniProt P27338 (whole entry, looked up): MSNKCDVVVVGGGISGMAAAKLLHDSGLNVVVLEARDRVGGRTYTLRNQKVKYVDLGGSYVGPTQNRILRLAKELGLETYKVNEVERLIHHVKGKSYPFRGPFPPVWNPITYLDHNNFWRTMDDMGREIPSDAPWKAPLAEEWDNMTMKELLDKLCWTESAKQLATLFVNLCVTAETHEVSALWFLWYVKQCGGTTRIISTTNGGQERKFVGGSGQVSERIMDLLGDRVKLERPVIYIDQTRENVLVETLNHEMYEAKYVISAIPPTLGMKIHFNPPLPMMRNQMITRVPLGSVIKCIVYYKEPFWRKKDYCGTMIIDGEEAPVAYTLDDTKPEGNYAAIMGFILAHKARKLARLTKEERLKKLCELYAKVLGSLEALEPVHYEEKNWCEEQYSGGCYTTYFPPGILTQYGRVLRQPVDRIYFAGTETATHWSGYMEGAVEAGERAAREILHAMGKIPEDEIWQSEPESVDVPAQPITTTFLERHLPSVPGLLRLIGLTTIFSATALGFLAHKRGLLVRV
Observed: enzyme activity
Action: inhibitor

O=C1c2ccccc2N(Cc2cccc(Cl)c2)C12CCCC2  IC50: 2780 nM
O=C(/C=C/c1ccccc1F)c1cc2ccccc2oc1=O  IC50: 7760 nM
O=c1ccoc2ccc(OCCCCCN3CCCCCC3)cc12  IC50 (fluorescence): 19900 nM
NC(=O)N/N=C/c1ccc(OCc2ccccc2)cc1  IC50 (absorbance): 120 nM
Nn1c(-c2ccc(-n3nc(-c4ccccc4O)nc3-c3ccccc3O)cc2)n[nH]c1=S  IC50 (fluorescence): 410 nM
O=C(/C=C/c1cccc(Cl)c1)c1cc2ccccc2oc1=O  IC50: 1530 nM
COc1ccc(C2N=C(SCCCSc3nnc(Cc4ccccc4Nc4c(Cl)cccc4Cl)n3-c3ccc(Cl)c(Cl)c3)NC(C)=C2C(C)=O)cc1 (stereo not drawn)  IC50 (fluorescence): 8280 nM
O=C(/C=C/c1ccccc1)c1cc2ccccc2oc1=O  IC50: 690 nM
NC(=S)N/N=C/c1ccc(OCc2ccccc2)cc1  IC50 (absorbance): 110 nM
NNC(=O)c1ccc(-n2nc(-c3ccccc3O)nc2-c2ccccc2O)cc1  IC50 (fluorescence): 130 nM
O=C1c2ccccc2N(Cc2ccc(F)cc2)C12CCCC2  IC50: 12600 nM
NC(=O)N/N=C/c1ccc(OCc2cccc(F)c2)cc1  IC50 (absorbance): 110 nM
O=C(/C=C/c1cccc(Br)c1)c1cc2ccccc2oc1=O  IC50: 33600 nM
O=C1CCCC2=C1C(c1c[nH]c3ccccc13)n1c(sc(=Cc3c[nH]c4ccccc34)c1=O)=N2 (stereo not drawn)  IC50 (fluorescence): 130 nM
O=C(Cc1ccccc1Nc1c(Cl)cccc1Cl)NNC(=S)Nc1ccc(Cl)c(Cl)c1  IC50 (fluorescence): 81 nM
S=C(N/N=C/c1ccccc1OCc1ccccc1)Nc1ccccc1  IC50 (absorbance): 15400 nM
O=C(/C=C/c1ccc(Br)cc1)c1cc2ccccc2oc1=O  IC50: 2500 nM
CNC(=S)N/N=C/c1ccccc1OCc1ccccc1  IC50 (absorbance): 5770 nM
N#Cc1ccc(CN2c3ccccc3C(=O)C23CCCC3)cc1  IC50: 1600 nM
NC(=O)N/N=C/c1ccccc1OCc1ccccc1  IC50 (absorbance): > 40000 nM
O=C1c2ccccc2N(Cc2ccccc2)C12CCCC2  IC50: 12200 nM
O=c1ccoc2ccc(OCCN3CCOCC3)cc12  IC50 (fluorescence): 6730 nM
NC(=S)N/N=C/c1cccc(OCc2ccccc2)c1  IC50 (absorbance): 2270 nM
O=C1c2cc(Cl)ccc2N(Cc2ccccc2)C12CCCC2  IC50: 5760 nM

Repeated from above:
O=c1ccoc2ccc(OCCN3CCOCC3)cc12  IC50 (fluorescence): 6730 nM
NC(=S)N/N=C/c1cccc(OCc2ccccc2)c1  IC50 (absorbance): 2270 nM
O=C1c2cc(Cl)ccc2N(Cc2ccccc2)C12CCCC2  IC50: 5760 nM
